# Published values gathered from unrelated publications.
# Parts stem from different laboratories: compare values within a part only. Substitutions count along the parent as printed.

# Study 1
# Target: Sal-like protein 4, full length isoform A (SALL4, Homo sapiens, UniProt Q9UJQ4, residues 1-1053)
# Chain of UniProt Q9UJQ4 (whole entry, looked up): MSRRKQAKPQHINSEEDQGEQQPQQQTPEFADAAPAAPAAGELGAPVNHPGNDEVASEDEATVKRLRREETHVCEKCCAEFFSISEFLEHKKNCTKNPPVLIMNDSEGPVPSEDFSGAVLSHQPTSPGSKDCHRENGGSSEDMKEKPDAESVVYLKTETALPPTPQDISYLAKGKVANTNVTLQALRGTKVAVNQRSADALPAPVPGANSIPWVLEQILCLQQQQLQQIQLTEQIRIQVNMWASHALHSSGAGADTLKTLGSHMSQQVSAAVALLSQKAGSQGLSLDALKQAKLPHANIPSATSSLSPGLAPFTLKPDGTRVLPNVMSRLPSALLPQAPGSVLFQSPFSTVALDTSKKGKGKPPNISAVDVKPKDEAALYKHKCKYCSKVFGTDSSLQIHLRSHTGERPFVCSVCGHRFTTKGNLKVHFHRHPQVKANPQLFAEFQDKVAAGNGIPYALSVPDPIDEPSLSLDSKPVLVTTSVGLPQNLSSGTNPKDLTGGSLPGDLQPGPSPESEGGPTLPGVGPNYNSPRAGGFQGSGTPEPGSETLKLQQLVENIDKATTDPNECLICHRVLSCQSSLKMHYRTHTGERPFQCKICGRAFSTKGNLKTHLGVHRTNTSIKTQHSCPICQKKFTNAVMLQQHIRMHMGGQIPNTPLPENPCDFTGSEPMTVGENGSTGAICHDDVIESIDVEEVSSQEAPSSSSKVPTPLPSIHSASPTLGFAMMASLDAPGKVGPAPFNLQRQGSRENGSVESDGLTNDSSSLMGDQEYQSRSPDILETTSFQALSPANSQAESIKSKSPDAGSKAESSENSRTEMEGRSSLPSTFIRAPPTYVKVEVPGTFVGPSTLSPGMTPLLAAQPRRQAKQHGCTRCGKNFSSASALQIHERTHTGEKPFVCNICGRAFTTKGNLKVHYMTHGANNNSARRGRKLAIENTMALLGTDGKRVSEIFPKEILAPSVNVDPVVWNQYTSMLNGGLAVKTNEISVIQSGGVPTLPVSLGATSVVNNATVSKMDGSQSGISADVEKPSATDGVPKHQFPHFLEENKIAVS
# Method: universal PBM
# Molecule type: double-stranded DNA, one strand shown
# Sample: in vitro
# Tested at: 600 nM
# Notes: 8-mer, flanks averaged, mean of replicates
# Reading: higher = stronger binding
Sequence,E-score
AGATCTTG,0.0561
GTACGTGA,0.0279
CAAGTATC,0.03
CTAAGATA,0.129
CAAGCGGG,-0.322
TATGGTGA,0.13
ATACTAAA,0.261
GCCTGAAA,-0.00373
AGTACTTC,0.162
AAGTTATG,0.378
AGGCATGA,-0.101
CTCAGGCA,-0.0763
GCGCCGAA,-0.18
CAACTACA,0.18
CATAGACC,-0.0395
ACTCCGGC,-0.188
GGAAGACA,0.0506
AGCACGCA,-0.148
ATCTGGCC,-0.201
CAAGTTAA,0.116
CACCTGTC,-0.147
GTAGCTTA,0.166
CCGGTGGA,-0.229
CTTAAGGA,-0.0423
AGCGAATC,0.0364

# Study 2
# Target: RNA binding protein fox-1 homolog 2, RRM domain, GST-SBP tag (RBFOX2, Homo sapiens, UniProt O43251-10, residues 100-194)
# Method: RNA Bind-n-Seq
# Molecule type: RNA
# Sample: in vitro
# Tested at: 365 nM
# Notes: natural RNA segment, single round, ends assumed
# Relative to: no-protein control
# Reading: higher = stronger binding
Sequence,RBNS enrichment (R)
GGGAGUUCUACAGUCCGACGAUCAAAGAAAGAACGCUUCAACCCCCUUCCCCAUUUAGAUUAUUUAUUAACAUAUUUCGAAAGUAAGGUUAGCUCUAUAAAUAAUUUAGAGAGGUGAGAGUAUUUAUUUUUGGUGGAAUUCUCGGGUGCCAA,0.461
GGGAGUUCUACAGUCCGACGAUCUGGCCACCCCUGCAGGGGAGCUACAGUGAGGCCUGGGGCUGGAUUCCACCCACAGUCCCUUCCCUGUGCACCCUGCUUUGUCCCCUGCCUUGUCCCCUGCUCUCUCUUCUUGGAAUUCUCGGGUGCCAA,0.581
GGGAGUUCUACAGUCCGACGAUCGUGGGCCACACUCUGGCUUUGUGGCUGCUGACAGGGCUUAGCUACACGAACAGCCUGAGAAGUCACUUUGGAACUAAAUUGCCUCGAUUUAUUUUGUGUAAGUAAGGGUUUGGAAUUCUCGGGUGCCAA,0.483
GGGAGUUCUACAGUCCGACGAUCAGAAGAGGGUUUCCACGAGCGGGAGGGUCGUCCGUACUGCCGGCGGGACUUCCUGCAGCUGUUCGCCCCACGCUGCCAGGGCUGCCAAGGCCCUAUUUUGGAUAACUACAUGGAAUUCUCGGGUGCCAA,0.398
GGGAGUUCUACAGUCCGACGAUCGGAAAAAACCUACAUGCUACAAGCCACCAUAUGCACAGACUAUACAGUGAGUUGAGUUGGCUCUCCCACAGUCUUUGAGGUGAAUUACAAAAGUCCAGCCAUUAUCAUCCUGGAAUUCUCGGGUGCCAA,0.666
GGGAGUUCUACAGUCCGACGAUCACUCUUCAGAAACAGACUUCCUCCUCUUUUCCUUUCUCCUCUGCUCCACAGCCUGUGCUCUGUUCAGUUCCCAACACAAUCGACAAUAAACGGUGAUGCCCAUUCGGAAGUGGAAUUCUCGGGUGCCAA,0.847
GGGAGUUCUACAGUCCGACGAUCUGUGUGUGGGCACAAGAGGACAUCUAACCACCUGCUCCUUGGAGGAGGCCCCCAGGGGUGGUAGAGGCUGGAAGGAAGCCACAUCAGGAGGACGCCACUCCGGCCCUUCAUGGAAUUCUCGGGUGCCAA,0.36
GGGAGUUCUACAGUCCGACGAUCCCUAAAACAUUUGUCACCAGAACAGUGGGGAAAAGCCUUCCUUUCCAGCCAUGUCUGACAGUGAGCAUGCUUUGGUGUGGUCUUCACUGCUUUUGGUUUUGCUUCUGAUCUGGAAUUCUCGGGUGCCAA,0.521

# Study 3
# Target: CCNE2, cyclin fold, Cln2 fusion (human)
# Method: yeast growth competition, sequencing
# Sample: yeast
# Notes: weak parent motif
# Relative to: not given
# Reading: higher = stronger binding
# Parent: ORC1 docking peptide (human); PRARKRLELGNLG; partner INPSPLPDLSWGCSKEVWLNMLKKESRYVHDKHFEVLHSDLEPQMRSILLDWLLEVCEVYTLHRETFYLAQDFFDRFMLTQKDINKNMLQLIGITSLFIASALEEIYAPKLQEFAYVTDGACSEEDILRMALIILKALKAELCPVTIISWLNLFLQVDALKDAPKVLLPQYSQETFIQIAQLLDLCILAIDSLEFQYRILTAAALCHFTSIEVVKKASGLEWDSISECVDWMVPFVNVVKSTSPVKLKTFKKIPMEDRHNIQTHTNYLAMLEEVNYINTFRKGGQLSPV
Change,normalised enrichment score
PRARKRLPLGNLG [E8P],0.782
PRAMKRLELGNLG [R4M],0.0345
PRARKRLELLNLG [G10L],0.994
PRARKRLEEGNLG [L9E],0.129
PRARKRLELGMLG [N11M],1.07
PRARKRLELCNLG [G10C],0.379
PRARKRLELGNMG [L12M],0.86
PRARKRLELGNEG [L12E],0.901
PRARKRLELANLG [G10A],0.521
PRARKRLELWNLG [G10W],1.85
PRARKRLELGYLG [N11Y],0.834
PRARKRLNLGNLG [E8N],1.15
PRARKRLELGNLY [G13Y],0.522
PRARKRLELGKLG [N11K],0.548
PRASKRLELGNLG [R4S],-0.153
PDARKRLELGNLG [R2D],0.665
PRLRKRLELGNLG [A3L],0.561
PRARKRLELGNYG [L12Y],-0.701
PRARKRLELGNTG [L12T],0.62
PRARKILELGNLG [R6I],0.207
PRARKRLELGNQG [L12Q],0.509
PRARKYLELGNLG [R6Y],1.15
PRARKRLELFNLG [G10F],0.293
PRARKRLFLGNLG [E8F],0.727
PRARKELELGNLG [R6E],-0.302

# Single results of other studies
Molecule,target,assay,test system,setting,how to read,endpoint,value
"PhoQ, residues 284 288 289 292 302 303 SNGLAW","PhoP, residues 12 14 15 18 19 MHTVL (Escherichia coli, UniProt P23836)","Sort-seq, measured: YFP reporter",E. coli,"PhoQ-PhoP variant library, added: 10 µM Mg2+","relative to: high Mg2+ state, higher = stronger signaling",fold induction,12.4

# Some of these lines once more (study 1):
Sequence,E-score
AGGCATGA,-0.101
CTCAGGCA,-0.0763
GCGCCGAA,-0.18
CAACTACA,0.18
